Published values pooled from the literature.
Lines come from different studies, so protocols differ. ± marks the error that the study gave. In brackets after ≈: the same amount, converted by molar mass.

CC[C@H](C)[C@H](NC(=O)[C@H](CCCN)NC(=O)[C@H](CC(N)=O)NC(=O)[C@H](CC(C)C)NC(=O)[C@H](Cc1ccccc1)NC(=O)[C@H](CCCN)NC(=O)[C@H](CCCNC(=N)N)NC(=O)[C@H](CC(C)C)NC(=O)[C@H](CC(C)C)NC(=O)[C@H](CCCN)NC(=O)[C@H](CCCNC(=N)N)NC(=O)[C@H](CC(C)C)NC(=O)CNC(C)=O)C(=O)N[C@@H](CCCN)C(=O)N[C@@H](CCCNC(=N)N)C(N)=O
geometric mean MIC (all bacteria tested): 4.96 µM

COc1ccccc1NC(=O)OC1C(C)C(OC)C=COC2(C)Oc3c(C)c(O)c4c(c3C2=O)C2=NC3(CCN(CC(C)C)CC3)NC2=C(NC(=O)C(C)=CC=CC(C)C(O)C(C)C(O)C1C)C4=O (stereo not shown)
IC50 (Mycobacteroides abscessus; ATCC 19977; CAMHB): 18 nM

CC[C@@H](C)[C@@H](NC(=O)[C@@H](C)N)C(=O)N[C@H](CCCCN)C(=O)N[C@@H](C(=O)N[C@H](CCCNC(=N)N)C(=O)N[C@H](CCCCN)C(=O)N[C@H](CC(C)C)C(=O)N[C@H](Cc1ccccc1)C(=O)N[C@H](CCCCN)C(=O)N[C@H](CCCCN)C(=O)N[C@H](CC(C)C)C(=O)N[C@H](CC(C)C)C(=O)N[C@H](CCCNC(=N)N)C(N)=O)[C@H](C)CC
MIC of antibiotic (Escherichia coli; broth microdilution checkerboard, refers to: ampicillin; ATCC 25922, LB medium; concentration not given): 3.12 µg/mL

C[C@H]1[C@H](C)CC[C@]2(CO)CC[C@]3(C)C(=CC[C@@H]4[C@@]5(C)CCCNC(C)(C)[C@@H]5CC[C@]43C)[C@H]12
EC90 (Human cytomegalovirus; cytopathic effect; HFF, AD169): > 6000 nM

COc1cc(Cn2ccc([C@H](C)[C@](O)(Cn3cnnn3)c3ccc(F)cc3F)n2)ccc1F
MIC (Candida tropicalis; growth, broth microdilution; 2718; 24 h, 30 °C, ≥50% inhibition): < 0.008 µg/mL

Cc1ccc2nc(-c3ccccc3)c(CN3CCN(c4ccc(Cl)cc4)CC3)n2c1
EC50 (Trypanosoma cruzi; 3T3 host cells, Tulahuen beta-galactosidase; 6 days): 1900 nM

CCC1(C)CCN(Cc2cc(N(C)C)c3c(c2O)C(=O)C2=C(O)[C@]4(O)C(=O)C(C(N)=O)=C(O)[C@@H](N(C)C)[C@@H]4C[C@@H]2C3)CC1
MIC (Streptococcus pneumoniae; ATCC 700905, Tet M ribosome protection): < 0.06 µg/mL

C[C@@H](c1ccn(Cc2c(F)ccc(F)c2F)n1)[C@](O)(Cn1cnnn1)c1ccc(F)cc1F
MIC (Candida tropicalis; growth, broth microdilution; 2718; 24 h, 30 °C, ≥50% inhibition): < 0.008 µg/mL

CCCCCc1ccc2c(c1O)C(c1ccc(OC)c(OC)c1OC)OC2=O (stereo not shown)
IC90 (Naegleria fowleri; parasite growth, resazurin; ATCC30808; 48 h): 56100 nM

CC(C)CC(=O)N[C@H](C(=O)N[C@H](C(=O)N[C@@H](CC(C)C)[C@@H](O)CC(=O)N[C@@H](C)C(=O)N[C@@H](CC(C)C)[C@@H](O)CC(=O)O)C(C)C)C(C)C
inhibition (Saccharomyces cerevisiae; protein secretion; BY4742 wild type; 25 µM): 7%

CCCc1ccc2c(c1O)C(c1ccc(OC)c(OC)c1OC)OC2=O (stereo not shown)
IC50 (Naegleria fowleri; parasite growth, resazurin; ATCC30808; 48 h): 59000 nM

CCOC(=O)c1c(-c2ccccc2)oc2ncccc12
EC50 (Trypanosoma cruzi; 3T3 host cells, Tulahuen beta-galactosidase; 6 days): 14700 nM

CN(C)c1cc(CNCC(=O)C(C)(C)C)c(O)c2c1C[C@H]1C[C@H]3[C@H](N(C)C)C(O)=C(C(N)=O)C(=O)[C@@]3(O)C(O)=C1C2=O
MIC (Streptococcus pneumoniae; microbial growth, broth dilution): 0.125 µg/mL (≈ 0.214 µM)

O=C(C1CCN(c2nnnn2-c2ccccc2)CC1)N1CCCc2ccccc21
lag phase (Plasmodium falciparum; parasite reduction ratio; 3D7; 10 x IC50): 48 h

CN(Cc1cc(N(C)C)c2c(c1O)C(=O)C1=C(O)[C@]3(O)C(=O)C(C(N)=O)=C(O)[C@@H](N(C)C)[C@@H]3C[C@@H]1C2)CC(C)(C)C
MIC (Streptococcus pneumoniae; ATCC 700905, Tet M ribosome protection): 0.125 µg/mL (≈ 0.219 µM)

CC(=O)c1c(O)c(C)c(O)c2c1OC1=CC(=O)/C3=C(/C)N[C@H](C(=O)O)CC1=CC=C(O)C=C[C@@]2(C)C3=O
MFC (Candida tropicalis; microbial killing): 49.3 µM (≈ 25 µg/mL)

Brc1ccc(-c2c[nH]c(-c3ccccn3)n2)cc1
worm killing (Schistosoma mansoni; female worms; 25 µM): 0%

Cc1ccc2nc(-c3ccc(F)c(F)c3)c(CN3CCC(c4ccccc4)CC3)n2c1
EC50 (Trypanosoma cruzi; 3T3 host cells, Tulahuen beta-galactosidase; 6 days): 1100 nM

Oc1cc(O)cc(Oc2c(O)cc(O)c3c2Oc2c(O)cc4oc5c(Oc6cc(O)cc(O)c6)c(O)cc(O)c5c4c2O3)c1
viral protein synthesis (Porcine epidemic diarrhea virus; western blot, refers to: spike protein; Vero; 30 µM, 18 and 24 h): inhibited

CCCCCCn1ccc([C@H](C)[C@](O)(Cn2cnnn2)c2ccc(F)cc2F)n1
MIC (Candida tropicalis; growth, broth microdilution; 2718; 24 h, 30 °C, ≥50% inhibition): 0.0625 µg/mL (≈ 0.155 µM)

Cc1ccnc(-c2cn([C@@H]3O[C@H](CO)[C@@H](O)[C@H]3O)c3ncnc(N)c23)n1
EC50 (Trichomonas vaginalis; resorufin; G3, metronidazole-sensitive; 24 h + 2 h, 2% O2): 2800 ± 478 nM

CN(C)c1cc(CNc2ccccc2)c(O)c2c1C[C@H]1C[C@H]3[C@H](N(C)C)C(O)=C(C(N)=O)C(=O)[C@@]3(O)C(O)=C1C2=O
MIC (Streptococcus pneumoniae; microbial growth, broth dilution): 2 µg/mL (≈ 3.55 µM)

CC(C)(C)NCC(SS(=O)(=O)O)c1ccccc1 (stereo not shown)
female worm burden reduction (Schistosoma mansoni; mice; oral, 400 mg/kg single dose, 21 days post-infection; reference: vehicle): 95%

CC[C@H](C)[C@H](NC(=O)[C@H](CCCN)NC(=O)[C@H](CC(N)=O)NC(=O)[C@H](Cc1c[nH]c2ccccc12)NC(=O)[C@H](Cc1ccccc1)NC(=O)[C@H](CCCN)NC(=O)[C@H](CCCCNC(=N)N)NC(=O)[C@H](CC(C)C)NC(=O)[C@H](Cc1c[nH]c2ccccc12)NC(=O)[C@H](CCCN)NC(=O)[C@H](CCCCNC(=N)N)NC(=O)[C@H](CC(C)C)NC(=O)CNC(C)=O)C(=O)N[C@@H](CCCN)C(=O)N[C@@H](CCCCNC(=N)N)C(N)=O
geometric mean MIC (all bacteria tested): 3.51 µM

CN(C)c1cc(CNCc2ccccc2)c(O)c2c1C[C@H]1C[C@H]3[C@H](N(C)C)C(O)=C(C(N)=O)C(=O)[C@@]3(O)C(O)=C1C2=O
MIC (Streptococcus pneumoniae; 157E; 50% mouse serum): 0.25 µg/mL (≈ 0.434 µM)

COc1cc(/C=C/c2cc(/C=C/c3ccc(O)c(OC)c3)n(C(N)=O)n2)ccc1O
inhibition (Spodoptera frugiperda; cell growth or viability, MTT; Sf9; 100 µM, 72 h): 75.4%

C=C(C)[C@@H]1CCC=C2CC[C@]3(C)[C@H](CC[C@@H]4[C@@]5(C)CCCNC(C)(C)[C@@H]5CC[C@]43C)[C@H]21
EC90 (Human cytomegalovirus; cytopathic effect; HFF, AD169): > 6000 nM

Nc1ncnc2c1c(-c1ccc(Cl)cc1)cn2[C@H]1C[C@H](O)[C@@H](CO)O1
EC50 (Trichomonas vaginalis; resorufin; G3, metronidazole-sensitive; 24 h + 2 h, 2% O2): 460 ± 130 nM

COc1ccc(-n2nc3c(=O)[nH]nc(C)c3c2C)cc1
selectivity index (Zika virus; Vero, MR766; reference: CC50 over EC50): 2.9

CN(C)c1cc(CNCCC(C)(C)C)c(O)c2c1C[C@H]1C[C@H]3[C@H](N(C)C)C(O)=C(C(N)=O)C(=O)[C@@]3(O)C(O)=C1C2=O
MIC (Streptococcus pneumoniae; ATCC 700905, Tet M ribosome protection): 0.25 µg/mL (≈ 0.438 µM)

CNCc1ccc2c(c1)N(C(=O)OCc1c(F)c(F)c(F)c(F)c1F)[C@H](CNC(=N)N)[C@H]2NC(=O)C(=O)Nc1ccc(Cl)c(F)c1
IC50 (amphotropic murine leukemia virus; viral infection; Cf2Th-CD4/CCR5): > 300000 nM
